Assay results collected from several papers.
Protocols differ between the studies behind these lines. ± gives the spread as reported.

With `CCCC[C@H]1C(=O)N(C)[C@@H](CCCC)C(=O)N[C@@H](CCCNC(=O)CN2CCN(CC(=O)O)CCN(CC(=O)O)CCN(CC(=O)O)CC2)C(=O)N[C@H](C(=O)NCC(N)=O)CSCC(=O)N[C@@H](Cc2ccc(O)cc2)C(=O)N(C)[C@@H](C)C(=O)N[C@@H](CC(N)=O)C(=O)N2CCC[C@H]2C(=O)N[C@@H](Cc2c[nH]cn2)C(=O)N[C@@H](CC(C)C)C(=O)N(C)CC(=O)N[C@@H](Cc2c[nH]c3ccccc23)C(=O)N[C@@H](CO)C(=O)N[C@@H](Cc2c[nH]c3ccccc23)C(=O)N1C` [gallium-68 labelled] the tissue uptake was 9.54 ± 0.7 %ID/g (NOD/SCID mice, CHO-hPD-L1 xenograft, blood; 60 min, atezolizumab 10 mg/kg pretreatment).
`O=C(CN1CCN(CC(=O)NCP(=O)([O-])[O-])CCN(CC(=O)NCP(=O)([O-])[O-])CCN(CC(=O)NCP(=O)([O-])[O-])CC1)NCP(=O)([O-])[O-].[Gd+3]` has a tissue uptake of 0.062 ± 0.036 % injected dose/g (Sprague-Dawley rat, blood; intravenous (tail vein), dose not given, 2 h).
`CC[C@H](C)[C@H](NC(=O)[C@H](CCCCN)NC(=O)CNC(=O)[C@H](CC(C)C)NC(=O)[C@H](Cc1ccccc1)NC(=O)[C@H](CCCCN)NC(=O)[C@H](CO)NC(=O)[C@H](Cc1ccccc1)NC(=O)[C@H](Cc1c[nH]c2ccccc12)NC(=O)[C@H](CCC(N)=O)NC(=O)[C@@H](NC(=O)[C@H](Cc1ccccc1)NC(=O)CCCCCNC(=O)CN1CCN(CC(=O)O)CCN(CC(=O)O)CCN(CC(=O)O)CC1)C(C)C)C(=O)N[C@@H](CCC(=O)O)C(=O)N1CCC[C@H]1C(=O)N[C@@H](CC(=O)O)C(=O)N[C@H](C(=O)N[C@@H](CO)C(=O)N[C@@H](CCC(N)=O)C(=O)N[C@H](C(=O)N[C@@H](CCC(N)=O)C(=O)N[C@@H](CC(=O)O)C(=O)N1CCC[C@H]1C(=O)N[C@@H](CC(N)=O)C(=O)N[C@@H](CC(=O)O)C(=O)N[C@@H](CCC(N)=O)C(=O)N[C@@H](Cc1ccc(O)cc1)C(=O)N[C@@H](CCC(=O)O)C(=O)N1CCC[C@H]1C(=O)N[C@@H](Cc1ccccc1)C(=O)O)C(C)C)C(C)C` [copper-64 labelled] gave a tissue uptake of 5.64 ± 0.8 %ID/g (C57BL/6 male mouse, tumour-naive, large intestine; 1 h).
For `O=C1NC2(CC2)COc2ncc(F)cc2[C@H]2COCCN2c2ccn3ncc1c3n2`, “aspartate aminotransferase activity” read 99.2 ± 26.7 U/L (Sprague-Dawley rat, male, serum; oral, 10 mg/kg/day, 4 weeks daily, end of recovery period).
The tissue uptake of `CC[C@H](C)[C@H](NC(=O)[C@H](CCCNC(=N)N)NC(=O)[C@H](CCCCN)NC(=O)[C@H](Cc1ccc(O)cc1)NC(=O)[C@H](CC(=O)O)NC(=O)[C@H](C)NC(=O)CNC(=O)CCOCCOCCOCCNC(=O)CN1CCN(CC(=O)O)CCN(CC(=O)O)CCN(CC(=O)O)CC1)C(=O)N[C@H](C(=O)N[C@H](C(=O)N[C@@H](CCCCN)C(=O)N[C@H](C(=O)N[C@@H](CC(N)=O)C(N)=O)C(C)C)C(C)C)[C@@H](C)O` [copper-64 labelled] is reported as 4.43 ± 0.134 %ID/g (ex vivo gamma counting; C57BL/6J male mice, B16-F10 tumour, liver; intravenous, 1.85 MBq, 100 min).
`C[C@H](O)[C@@H](NC(=O)[C@H]1CCCN1C(=O)[C@@H](CCCCN)NC(=O)[C@@H](CO)NC(=O)[C@@H](Cc1ccc(O)cc1)NC(=O)[C@@H](CC(N)=O)NC(=O)CCOCCOCCOCCNC(=O)CN1CCN(CC(=O)O)CCN(CC(=O)O)CCN(CC(=O)O)CC1)C(=O)N[C@H](CC(=O)O)C(=O)N[C@H](CCCNC(=N)N)C(=O)N[C@H](CCC(N)=O)C(=O)N[C@H](Cc1ccc(O)cc1)C(=O)N[C@H](Cc1c[nH]cn1)C(=O)N[C@H](Cc1ccccc1)C(N)=O` [copper-64 labelled] gave a tissue uptake of 0.97 ± 0.13 %ID/g (C57BL/6J mouse, blood; intravenous, 1.85 MBq, 0.6667 h).
The tissue uptake of `CSCC[C@H](NC(=O)CNC(=O)[C@H](CCCCN)NC(=O)[C@H](CC(C)C)NC(=O)[C@@H]1CCCN1C(=O)[C@H](CO)NC(=O)[C@H](Cc1c[nH]cn1)NC(=O)[C@H](Cc1c[nH]c2ccccc12)NC(=O)[C@H](CCCNC(=N)N)NC(=O)[C@H](CC(C)C)NC(=O)[C@H](CCCNC(=N)N)NC(=O)[C@H](Cc1c[nH]c2ccccc12)NC(=O)[C@H](CS)NC(=O)CCCCCNC(=O)CN1CCN(CC(=O)O)CCN(CC(=O)O)CCN(CC(=O)O)CC1)C(=O)O` [copper-64 labelled] is reported as 10.5 ± 0.28 %ID/g (PET; C57BL/6J mice, B16-F10 tumour, liver; intravenous, 3.5 h).
`CC(C)C[C@@H](NC(=O)[C@@H](CCCNC(=N)N)NC(=O)[C@@H](Cc1c[nH]cn1)NC(=O)[C@@H](Cc1c[nH]c2ccccc12)NC(=O)[C@@H](Cc1c[nH]cn1)NC(=O)[C@@H](Cc1ccccc1)NC(=O)[C@H](NC(=O)[C@@H](Cc1ccc(O)cc1)NC(=O)CNC(=O)CNC(=O)CCOCCOCCOCCNC(=O)CN1CCN(CC(=O)O)CCN(CC(=O)O)CC1)[C@H](C)O)C(=O)N[C@H](CC(N)=O)C(=O)N1CCC[C@@H]1C(=O)O` [gallium-68 labelled] gave a tissue uptake of 0.69 ± 0.3 %ID/g (C57BL/6 mice, male, heart; intravenous, 1.85 MBq, 60 min, with: GP12 blocking).
With `CC[C@H](C)[C@H](NC(=O)[C@@H](Cc1c[nH]c2ccccc12)NC(=O)[C@@H]1CCCN1C(=O)[C@H](CCCCN)NC(=O)[C@H](CCCCN)NC(=O)CCNC(=O)CCNC(=O)CN1CCN(CC(=O)O)CCN(CC(=O)O)CCN(CC(=O)O)CC1)C(=O)N[C@@H](C[Si](C)(C)C)C(=O)O` [gallium-68 labelled] the tissue uptake was 0.19 ± 0.08 %ID/g (nude mouse HT-29 xenograft, pancreas; 90 min).
`O=C([O-])CNC(=O)CN1CCN(CC(=O)NCC(=O)[O-])CCN(CC(=O)NCC(=O)[O-])CCN(CC(=O)NCC(=O)[O-])CC1.[177Lu+3]` has a tissue uptake of 0.043 ± 0.02 % injected dose/g (Sprague-Dawley rat, liver; intravenous (tail vein), dose not given, 2 h).
`CN1Cc2cc(Cl)ccc2-n2c(nnc2C2CCN(c3cccc([18F])n3)CC2)C1` has a tissue uptake of 4.85 ± 0.85 %ID/g (C57BL/6 mouse male, lung; intravenous, 3.7 MBq, 30 min).

For quick reference, copied from above:
`O=C(CN1CCN(CC(=O)NCP(=O)([O-])[O-])CCN(CC(=O)NCP(=O)([O-])[O-])CCN(CC(=O)NCP(=O)([O-])[O-])CC1)NCP(=O)([O-])[O-].[Gd+3]` has a tissue uptake of 0.062 ± 0.036 % injected dose/g (Sprague-Dawley rat, blood; intravenous (tail vein), dose not given, 2 h).
